Results from different studies.
Protocols differ between the studies behind these lines. Numbers after ± are the reported error.
Oprd1: Delta-type opioid receptor (Oprd1, Rattus norvegicus, UniProt P33533)
Chain of UniProt P33533 (whole entry, looked up): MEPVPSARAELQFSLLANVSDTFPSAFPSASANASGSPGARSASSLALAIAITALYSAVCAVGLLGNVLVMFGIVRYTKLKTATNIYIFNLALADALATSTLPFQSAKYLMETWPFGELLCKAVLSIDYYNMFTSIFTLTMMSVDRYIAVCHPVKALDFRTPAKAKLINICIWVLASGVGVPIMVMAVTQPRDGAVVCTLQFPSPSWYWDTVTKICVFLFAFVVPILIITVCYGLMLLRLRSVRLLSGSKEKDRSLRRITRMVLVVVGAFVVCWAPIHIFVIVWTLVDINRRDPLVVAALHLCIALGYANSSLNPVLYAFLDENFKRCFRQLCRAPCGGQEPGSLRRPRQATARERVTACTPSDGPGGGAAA
GLP1R: Glucagon-like peptide 1 receptor (GLP1R, Homo sapiens, UniProt P43220)
Chain of UniProt P43220 (whole entry, looked up): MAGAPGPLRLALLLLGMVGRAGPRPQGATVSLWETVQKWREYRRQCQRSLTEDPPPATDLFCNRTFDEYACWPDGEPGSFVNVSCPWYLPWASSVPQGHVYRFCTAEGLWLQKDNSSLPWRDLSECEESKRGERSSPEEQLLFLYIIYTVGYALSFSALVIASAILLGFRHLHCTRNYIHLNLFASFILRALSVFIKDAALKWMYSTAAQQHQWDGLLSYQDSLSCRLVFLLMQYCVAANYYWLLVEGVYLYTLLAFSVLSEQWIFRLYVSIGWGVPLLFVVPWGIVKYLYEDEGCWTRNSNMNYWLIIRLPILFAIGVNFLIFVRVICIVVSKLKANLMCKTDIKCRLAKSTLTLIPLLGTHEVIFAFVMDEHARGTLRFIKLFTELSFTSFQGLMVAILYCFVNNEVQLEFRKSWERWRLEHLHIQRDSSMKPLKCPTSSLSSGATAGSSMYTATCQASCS
DRD3: D(3) dopamine receptor (DRD3, Homo sapiens, UniProt P35462)
Chain of UniProt P35462 (whole entry, looked up): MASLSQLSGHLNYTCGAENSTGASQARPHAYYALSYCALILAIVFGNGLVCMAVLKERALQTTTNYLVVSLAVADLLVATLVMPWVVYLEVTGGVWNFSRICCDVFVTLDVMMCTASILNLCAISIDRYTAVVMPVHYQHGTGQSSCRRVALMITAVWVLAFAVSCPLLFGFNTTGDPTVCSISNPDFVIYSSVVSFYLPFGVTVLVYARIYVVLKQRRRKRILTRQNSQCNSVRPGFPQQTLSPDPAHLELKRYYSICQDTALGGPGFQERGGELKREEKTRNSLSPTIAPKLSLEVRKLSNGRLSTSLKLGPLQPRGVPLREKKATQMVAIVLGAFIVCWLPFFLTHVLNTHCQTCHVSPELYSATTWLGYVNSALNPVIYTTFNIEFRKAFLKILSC
histidine kinase ComD: histidine kinase ComD (Streptococcus pneumoniae serotype 4, UniProt A0A0H2US84)
Chain of UniProt Q9NSD7 (whole entry, looked up): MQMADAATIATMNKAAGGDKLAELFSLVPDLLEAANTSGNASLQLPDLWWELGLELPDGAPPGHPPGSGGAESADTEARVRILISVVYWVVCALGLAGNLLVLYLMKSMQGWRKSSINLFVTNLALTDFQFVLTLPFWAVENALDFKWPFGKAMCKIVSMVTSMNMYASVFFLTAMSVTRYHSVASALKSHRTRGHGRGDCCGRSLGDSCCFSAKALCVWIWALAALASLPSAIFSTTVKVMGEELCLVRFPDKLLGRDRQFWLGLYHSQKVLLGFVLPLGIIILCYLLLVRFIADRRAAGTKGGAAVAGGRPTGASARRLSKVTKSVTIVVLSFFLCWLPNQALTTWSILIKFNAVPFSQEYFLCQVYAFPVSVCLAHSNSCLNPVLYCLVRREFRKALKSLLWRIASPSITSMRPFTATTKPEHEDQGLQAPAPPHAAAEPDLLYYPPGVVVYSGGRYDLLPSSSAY
Chain of UniProt P50391 (whole entry, looked up): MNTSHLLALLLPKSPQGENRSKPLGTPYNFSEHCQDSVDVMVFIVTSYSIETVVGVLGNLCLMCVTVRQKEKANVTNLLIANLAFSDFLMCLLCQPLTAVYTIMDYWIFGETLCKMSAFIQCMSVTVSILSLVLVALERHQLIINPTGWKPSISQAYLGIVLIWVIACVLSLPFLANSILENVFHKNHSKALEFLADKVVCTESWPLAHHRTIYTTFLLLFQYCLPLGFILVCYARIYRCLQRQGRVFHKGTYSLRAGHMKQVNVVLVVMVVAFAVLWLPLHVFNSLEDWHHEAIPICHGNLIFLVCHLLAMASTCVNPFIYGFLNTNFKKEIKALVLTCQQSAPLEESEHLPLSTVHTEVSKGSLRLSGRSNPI
Chain of UniProt P41143 (whole entry, looked up): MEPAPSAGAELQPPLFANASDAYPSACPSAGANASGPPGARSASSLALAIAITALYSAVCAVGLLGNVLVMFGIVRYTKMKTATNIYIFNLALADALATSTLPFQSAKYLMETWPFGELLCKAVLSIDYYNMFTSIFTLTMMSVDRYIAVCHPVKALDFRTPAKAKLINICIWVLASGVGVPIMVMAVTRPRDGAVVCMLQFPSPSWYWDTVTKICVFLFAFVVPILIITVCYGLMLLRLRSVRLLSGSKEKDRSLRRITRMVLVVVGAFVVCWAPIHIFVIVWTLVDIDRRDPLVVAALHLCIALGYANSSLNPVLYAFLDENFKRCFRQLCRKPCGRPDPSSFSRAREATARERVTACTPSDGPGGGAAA
Chain of UniProt P08482 (whole entry, looked up): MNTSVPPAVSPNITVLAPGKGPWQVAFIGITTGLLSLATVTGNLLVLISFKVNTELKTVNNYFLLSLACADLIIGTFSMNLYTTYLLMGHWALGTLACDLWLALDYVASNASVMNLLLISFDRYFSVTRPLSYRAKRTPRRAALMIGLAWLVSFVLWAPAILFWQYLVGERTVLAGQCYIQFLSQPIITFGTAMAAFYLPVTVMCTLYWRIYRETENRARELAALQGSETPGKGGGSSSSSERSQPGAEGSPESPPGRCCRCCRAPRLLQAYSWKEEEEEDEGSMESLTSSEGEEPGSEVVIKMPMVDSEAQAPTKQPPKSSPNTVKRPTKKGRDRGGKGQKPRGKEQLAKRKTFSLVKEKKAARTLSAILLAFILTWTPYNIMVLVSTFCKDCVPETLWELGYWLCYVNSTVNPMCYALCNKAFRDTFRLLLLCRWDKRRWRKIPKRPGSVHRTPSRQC
Chain of UniProt P48546 (whole entry, looked up): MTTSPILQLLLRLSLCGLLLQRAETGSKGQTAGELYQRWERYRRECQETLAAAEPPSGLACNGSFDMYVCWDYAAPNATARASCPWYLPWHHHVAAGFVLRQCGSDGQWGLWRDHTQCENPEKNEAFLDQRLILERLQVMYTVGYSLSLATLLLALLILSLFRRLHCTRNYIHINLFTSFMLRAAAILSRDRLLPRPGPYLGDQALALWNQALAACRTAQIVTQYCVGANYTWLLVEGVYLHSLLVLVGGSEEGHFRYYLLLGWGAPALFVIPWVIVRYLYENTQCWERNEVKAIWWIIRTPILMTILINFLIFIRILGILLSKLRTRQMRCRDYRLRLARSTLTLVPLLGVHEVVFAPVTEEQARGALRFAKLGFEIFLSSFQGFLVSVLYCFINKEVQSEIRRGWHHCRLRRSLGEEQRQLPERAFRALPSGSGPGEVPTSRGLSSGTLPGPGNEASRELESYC
Chain of UniProt P21554 (whole entry, looked up): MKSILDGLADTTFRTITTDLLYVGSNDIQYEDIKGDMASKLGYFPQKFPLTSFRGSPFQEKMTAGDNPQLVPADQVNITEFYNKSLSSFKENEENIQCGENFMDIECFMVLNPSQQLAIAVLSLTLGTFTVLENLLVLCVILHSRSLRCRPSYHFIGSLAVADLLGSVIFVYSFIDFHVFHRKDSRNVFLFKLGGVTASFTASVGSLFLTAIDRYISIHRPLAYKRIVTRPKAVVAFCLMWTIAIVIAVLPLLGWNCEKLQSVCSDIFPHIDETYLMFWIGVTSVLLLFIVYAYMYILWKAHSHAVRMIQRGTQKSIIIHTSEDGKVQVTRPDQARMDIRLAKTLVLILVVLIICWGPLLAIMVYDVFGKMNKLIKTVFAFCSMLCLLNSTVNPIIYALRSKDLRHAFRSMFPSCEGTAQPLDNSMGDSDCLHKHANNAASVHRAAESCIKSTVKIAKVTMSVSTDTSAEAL

Compound	target	test	test system	conditions	EC50 [nM]
CC(C)C[C@@H]1NC(=O)[C@H](Cc2ccc(O)cc2)NC(=O)[C@H](CO)NC(=O)[C@H](C)NC(=O)[C@@H](NC(=O)[C@@H](NC(=O)[C@H](CO)NC(=O)[C@@H](N)CC(=O)O)C(C)C)CSC1=O	Accessory gene regulator protein C (Staphylococcus epidermidis, UniProt O86861)	–	–	–	1870
Cc1cc(O)cc(C)c1CC(N)C(=O)NC1CCNc2c(Br)cc(Cc3ccccc3)cc21 (stereo not shown)	Oprd1	GTPγS binding, agonist, radiometric	–	cell membranes	36
CC[C@H](C)[C@H](NC(=O)[C@H](Cc1ccccc1)NC(=O)[C@H](CCC(=O)O)NC(=O)[C@H](CCCCN)NC(=O)[C@H](C)NC(=O)[C@H](C)NC(=O)[C@H](CCC(N)=O)NC(=O)CNC(=O)[C@H](CCC(=O)O)NC(=O)[C@H](CC(C)C)NC(=O)[C@H](Cc1ccc(O)cc1)NC(=O)[C@H](CO)NC(=O)[C@H](CO)NC(=O)[C@@H](NC(=O)[C@H](CC(=O)O)NC(=O)[C@H](CO)NC(=O)[C@@H](NC(=O)[C@H](Cc1ccccc1)NC(=O)[C@@H](NC(=O)CNC(=O)[C@H](CC(C(F)(F)F)C(F)(F)F)NC(=O)[C@H](C)NC(=O)[C@@H](N)Cc1c[nH]cn1)[C@@H](C)O)[C@@H](C)O)C(C)C)C(=O)N[C@@H](C)C(=O)N[C@@H](Cc1c[nH]c2ccccc12)C(=O)N[C@@H](CC(C)C)C(=O)N[C@H](C(=O)N[C@@H](CCCCN)C(=O)NCC(=O)N[C@@H](CCCNC(=N)N)C(N)=O)C(C)C	GLP1R	agonist	–	–	2
CC[C@H](C)[C@H](NC(=O)[C@H](Cc1ccccc1)NC(=O)[C@H](CCC(=O)O)NC(=O)[C@H](CCCCN)NC(=O)[C@H](C)NC(=O)[C@H](C)NC(=O)[C@H](CCC(N)=O)NC(=O)CNC(=O)[C@H](CCC(=O)O)NC(=O)[C@H](CC(C)C)NC(=O)[C@H](Cc1ccc(O)cc1)NC(=O)[C@H](CO)NC(=O)[C@H](CO)NC(=O)[C@@H](NC(=O)[C@H](CC(=O)O)NC(=O)[C@H](CO)NC(=O)[C@@H](NC(=O)[C@H](Cc1ccccc1)NC(=O)[C@@H](NC(=O)CNC(=O)[C@H](CCC(=O)O)NC(=O)C(C)(C)NC(=O)N(N)Cc1c[nH]cn1)[C@@H](C)O)[C@@H](C)O)C(C)C)C(=O)N[C@@H](C)C(=O)N[C@@H](Cc1c[nH]c2ccccc12)C(=O)N[C@@H](CC(C)C)C(=O)N[C@H](C(=O)N[C@@H](CCCNC(=N)N)C(=O)NCC(=O)N[C@@H](CCCNC(=N)N)C(=O)NCC(=O)O)C(C)C	GLP1R	cAMP reporter gene, agonist, CRE-luciferase	BHK cells expressing receptor	–	0.306 ± 0.044
O=C(c1ccc2c(c1)c1ccccc1n2CC1CCOCC1)c1cccc2ccccc12	CNR1 (Homo sapiens, UniProt P21554)	GTPγS binding, agonist, radiometric	–	cell membranes	12.9
CCN1CCC[C@@H]1CNC(=O)c1cn(C2CCCC2)c(=O)c2c1c1ccccc1n2C	GLP1R	calcium mobilization, positive allosteric modulator	9-3-H cells	added: GLP-1 at EC20	> 10000
CC(C)[C@H](NC(=O)[C@H](CC(N)=O)NC(=O)[C@H](Cc1ccc(O)cc1)NC(=O)[C@@H](N)CCCCN)C(=O)N[C@H]1CSC(=O)[C@H](Cc2ccccc2)NC(=O)[C@H](Cc2ccc(O)cc2)NC(=O)[C@H](CO)NC(=O)[C@H](C)NC1=O	Accessory gene regulator protein C (Staphylococcus epidermidis, UniProt O86861)	–	–	–	71.8
CC(N)CCc1ccccc1Cl (racemic)	DRD3	β-arrestin recruitment, agonist	–	–	14400
Cn1ccc(-c2ccc(Cn3cc(C(=O)N[C@H]4CCCC[C@@H]4O)c4c(F)cc(F)cc43)cn2)n1	Chrm1 (Rattus norvegicus, UniProt P08482)	calcium signal, positive allosteric modulator	–	–	191
CC[C@H](C)[C@@H]1NC(=O)[C@@H](NC(=O)[C@H](CCC(=O)O)NC(=O)[C@H](CCCNC(=N)N)NC(=O)CNC(=O)[C@H](CO)NC(=O)[C@H](CC(C)C)NC(=O)[C@H](CCCNC(=N)N)NC(=O)[C@@H](NC(=O)CNC(=O)[C@H](Cc2ccc(O)cc2)NC(=O)[C@@H]2CCCN2C(=O)[C@H](C)NC(=O)[C@H](C)NC(=O)[C@@H](N)CCCNC(=N)N)C(C)C)CSSC[C@@H](C(=O)N[C@H](C(=O)N[C@@H](Cc2ccccc2)C(=O)N[C@H](C(=O)N[C@@H](CO)C(=O)NCC(=O)NCC(=O)N[C@@H](CO)C(=O)N[C@@H](CCCNC(=N)N)C(=O)N[C@@H](Cc2c[nH]c3ccccc23)C(=O)O)[C@@H](C)O)[C@@H](C)CC)NC(=O)[C@H](C)NC(=O)[C@H](CCCNC(=N)N)NC1=O	RXFP3 (Homo sapiens, UniProt Q9NSD7)	cAMP, agonist	–	–	16500
CC[C@H](C)[C@H](NC(=O)[C@H](CO)NC(=O)[C@H](Cc1ccc(O)cc1)NC(=O)[C@H](CC(=O)O)NC(=O)[C@H](CO)NC(=O)[C@@H](NC(=O)[C@H](Cc1ccccc1)NC(=O)[C@@H](NC(=O)CNC(=O)[C@H](CCC(=O)O)NC(=O)C(C)(C)NC(=O)[C@@H](N)Cc1ccc(O)cc1)[C@@H](C)O)[C@@H](C)CC)C(=O)N[C@@H](C)C(=O)N[C@@H](CCSC)C(=O)N[C@@H](CC(=O)O)C(=O)N[C@@H](CCCCN)C(=O)N[C@H](C(=O)N[C@@H](CCCNC(=N)N)C(=O)N[C@@H](CCC(N)=O)C(=O)N[C@@H](CCC(N)=O)C(=O)N[C@@H](CC(=O)O)C(=O)N[C@@H](Cc1ccccc1)C(=O)N[C@H](C(=O)N[C@@H](CC(N)=O)C(=O)N[C@@H](Cc1c[nH]c2ccccc12)C(=O)N[C@@H](CC(C)C)C(=O)N[C@@H](CC(C)C)C(=O)N[C@@H](C)C(=O)N[C@@H](CCC(N)=O)C(=O)N[C@@H](CCCNC(=N)N)C(=O)NCC(=O)N[C@@H](CCCCN)C(=O)N[C@@H](CCCCN)C(=O)N[C@@H](CO)C(=O)N[C@@H](CC(=O)O)C(=O)N[C@@H](Cc1c[nH]c2ccccc12)C(=O)N[C@@H](CCCCN)C(=O)N[C@@H](Cc1c[nH]cn1)C(=O)N[C@@H](CC(N)=O)C(=O)N[C@H](C(=O)N[C@H](C(=O)N[C@@H](CCC(N)=O)C(=O)O)[C@@H](C)O)[C@@H](C)CC)C(C)C)[C@@H](C)CC	GIPR (Homo sapiens, UniProt P48546)	reporter gene, agonist, luciferase	–	–	0.0043
CC[C@H](C)[C@H](N)C(=O)N[C@@H](CC(N)=O)C(=O)N[C@H]1CSC(=O)[C@H](CC(C)C)NC(=O)[C@H](CC(C)C)NC(=O)[C@H](Cc2ccccc2)NC(=O)[C@H](CC(N)=O)NC1=O	Accessory gene regulator protein C (Staphylococcus aureus, UniProt O33590)	–	–	–	967
Nc1ncnc2c1ncn2C1CCC(OC(C(=O)O)P(=O)(O)O)C1 (racemic)	Gag-Pol polyprotein, reverse transcriptase (gag-pol, Human immunodeficiency virus type 1 group M subtype B, UniProt P04585)	post-translocation trapping, Fe2+ footprinting	–	50% complexes post-translocated	160 ± 34
Cc1cc(O)cc(C)c1CC(N)C(=O)NC1CCNc2c1cc(Cc1ccccc1)cc2C(C)(C)C (stereo not shown)	Oprd1	GTPγS binding, agonist, radiometric	–	cell membranes	240
CC[C@H](C)[C@H](NC(=O)[C@H](Cc1ccccc1)NC(=O)[C@@H]1CCCNC(=O)NCCC[C@H](NC(=O)[C@H](CO)NC(=O)[C@H](CC(C)C)NC(=O)[C@H](CCCNC(=N)N)NC(=O)[C@H](CCSC)NC(=O)[C@H](C)N)C(=O)N[C@@H](Cc2ccccc2)C(=O)N[C@@H](Cc2ccccc2)C(=O)N[C@@H](CCCNC(=N)N)C(=O)N1)C(=O)N[C@@H](CC(C)C)C(=O)N[C@@H](CCC(N)=O)C(=O)N[C@@H](CCCNC(=N)N)C(=O)N[C@@H](CCCCN)C(=O)N[C@@H](CCCCN)C(=O)O	histidine kinase ComD	–	Streptococcus pneumoniae	–	> 1000
CNC(C)CCc1ccccc1Cl (racemic)	DRD3	phosphorylation in cells, agonist, western blot	–	–	39.2
CC(=O)N[C@@H](CCCNC(=N)N)C(=O)N[C@H](Cc1ccc(O)cc1)C(=O)N[C@@H](CCCNC(=N)NC(=O)NCCCCN)C(=O)N[C@@H](CC(C)C)C(=O)N[C@@H](CCCNC(=N)N)C(=O)N[C@@H](Cc1ccc(O)cc1)C(N)=O	NPY4R (Homo sapiens, UniProt P50391)	β-arrestin 1 recruitment, agonist	HEK293T	–	2050 ± 780
CCCC[C@@H]1NC(=O)[C@H](Cc2ccccc2)NC(=O)CNC(=O)[C@H](NC(=O)[C@@H](N)Cc2ccc(O)cc2)C(C)(C)SSC(C)(C)[C@@H](C(=O)N[C@@H](Cc2c[nH]c3ccccc23)C(=O)NCc2cc(C(F)(F)F)cc(C(F)(F)F)c2)NC(=O)[C@@H]2CCCN2C1=O	OPRD1 (Homo sapiens, UniProt P41143)	GTPγS binding, agonist, radiometric	–	cell membranes	530
CC[C@H](C)[C@H](NC(=O)[C@H](Cc1c[nH]cn1)NC(=O)[C@@H](NC(=O)[C@H](CCC(N)=O)NC(=O)[C@H](CCCNC(=N)N)NC(=O)[C@@H](NC(=O)[C@@H](N)CCC(=O)O)[C@@H](C)CC)[C@@H](C)O)C(=O)N[C@@H](Cc1ccccc1)C(=O)N[C@@H](Cc1ccccc1)C(=O)N[C@@H](Cc1ccccc1)C(=O)N[C@@H](Cc1ccccc1)C(=O)N[C@@H](Cc1ccccc1)C(=O)N[C@@H](Cc1ccccc1)C(=O)N[C@@H](CCCCN)C(=O)N[C@@H](CCCNC(=N)N)C(=O)N[C@@H](CCCNC(=N)N)C(=O)O	histidine kinase ComD	reporter gene, agonist	Streptococcus pneumoniae, TIGR4 comX::lacZ	30 min, pH 7.3, 37 °C	> 10000

Some of these lines once more:
Compound	target	test	test system	conditions	EC50 [nM]
CC(C)C[C@@H]1NC(=O)[C@H](Cc2ccc(O)cc2)NC(=O)[C@H](CO)NC(=O)[C@H](C)NC(=O)[C@@H](NC(=O)[C@@H](NC(=O)[C@H](CO)NC(=O)[C@@H](N)CC(=O)O)C(C)C)CSC1=O	Accessory gene regulator protein C (Staphylococcus epidermidis, UniProt O86861)	–	–	–	1870
Cc1cc(O)cc(C)c1CC(N)C(=O)NC1CCNc2c(Br)cc(Cc3ccccc3)cc21 (stereo not shown)	Oprd1	GTPγS binding, agonist, radiometric	–	cell membranes	36
CC[C@H](C)[C@H](NC(=O)[C@H](Cc1ccccc1)NC(=O)[C@H](CCC(=O)O)NC(=O)[C@H](CCCCN)NC(=O)[C@H](C)NC(=O)[C@H](C)NC(=O)[C@H](CCC(N)=O)NC(=O)CNC(=O)[C@H](CCC(=O)O)NC(=O)[C@H](CC(C)C)NC(=O)[C@H](Cc1ccc(O)cc1)NC(=O)[C@H](CO)NC(=O)[C@H](CO)NC(=O)[C@@H](NC(=O)[C@H](CC(=O)O)NC(=O)[C@H](CO)NC(=O)[C@@H](NC(=O)[C@H](Cc1ccccc1)NC(=O)[C@@H](NC(=O)CNC(=O)[C@H](CC(C(F)(F)F)C(F)(F)F)NC(=O)[C@H](C)NC(=O)[C@@H](N)Cc1c[nH]cn1)[C@@H](C)O)[C@@H](C)O)C(C)C)C(=O)N[C@@H](C)C(=O)N[C@@H](Cc1c[nH]c2ccccc12)C(=O)N[C@@H](CC(C)C)C(=O)N[C@H](C(=O)N[C@@H](CCCCN)C(=O)NCC(=O)N[C@@H](CCCNC(=N)N)C(N)=O)C(C)C	GLP1R	agonist	–	–	2
